Assay results gathered from unrelated publications.
A part holds a random share of what one study measured. Substitutions count along the parent as printed.
Sequence of UniProt P51956 (whole entry, looked up): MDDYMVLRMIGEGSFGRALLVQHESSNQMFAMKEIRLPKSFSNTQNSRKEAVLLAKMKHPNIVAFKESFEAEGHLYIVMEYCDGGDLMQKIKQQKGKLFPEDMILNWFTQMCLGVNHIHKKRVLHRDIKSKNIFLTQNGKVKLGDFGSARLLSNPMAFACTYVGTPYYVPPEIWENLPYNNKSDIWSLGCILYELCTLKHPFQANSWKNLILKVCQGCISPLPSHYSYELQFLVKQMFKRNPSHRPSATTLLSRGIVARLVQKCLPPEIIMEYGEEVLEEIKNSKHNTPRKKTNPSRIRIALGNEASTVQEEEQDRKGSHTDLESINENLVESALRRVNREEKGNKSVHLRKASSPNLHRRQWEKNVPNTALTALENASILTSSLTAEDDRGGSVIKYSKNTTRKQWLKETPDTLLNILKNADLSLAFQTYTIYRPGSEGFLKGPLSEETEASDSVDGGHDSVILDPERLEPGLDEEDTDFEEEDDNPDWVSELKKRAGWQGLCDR
Sequence of UniProt P42336 (whole entry, looked up): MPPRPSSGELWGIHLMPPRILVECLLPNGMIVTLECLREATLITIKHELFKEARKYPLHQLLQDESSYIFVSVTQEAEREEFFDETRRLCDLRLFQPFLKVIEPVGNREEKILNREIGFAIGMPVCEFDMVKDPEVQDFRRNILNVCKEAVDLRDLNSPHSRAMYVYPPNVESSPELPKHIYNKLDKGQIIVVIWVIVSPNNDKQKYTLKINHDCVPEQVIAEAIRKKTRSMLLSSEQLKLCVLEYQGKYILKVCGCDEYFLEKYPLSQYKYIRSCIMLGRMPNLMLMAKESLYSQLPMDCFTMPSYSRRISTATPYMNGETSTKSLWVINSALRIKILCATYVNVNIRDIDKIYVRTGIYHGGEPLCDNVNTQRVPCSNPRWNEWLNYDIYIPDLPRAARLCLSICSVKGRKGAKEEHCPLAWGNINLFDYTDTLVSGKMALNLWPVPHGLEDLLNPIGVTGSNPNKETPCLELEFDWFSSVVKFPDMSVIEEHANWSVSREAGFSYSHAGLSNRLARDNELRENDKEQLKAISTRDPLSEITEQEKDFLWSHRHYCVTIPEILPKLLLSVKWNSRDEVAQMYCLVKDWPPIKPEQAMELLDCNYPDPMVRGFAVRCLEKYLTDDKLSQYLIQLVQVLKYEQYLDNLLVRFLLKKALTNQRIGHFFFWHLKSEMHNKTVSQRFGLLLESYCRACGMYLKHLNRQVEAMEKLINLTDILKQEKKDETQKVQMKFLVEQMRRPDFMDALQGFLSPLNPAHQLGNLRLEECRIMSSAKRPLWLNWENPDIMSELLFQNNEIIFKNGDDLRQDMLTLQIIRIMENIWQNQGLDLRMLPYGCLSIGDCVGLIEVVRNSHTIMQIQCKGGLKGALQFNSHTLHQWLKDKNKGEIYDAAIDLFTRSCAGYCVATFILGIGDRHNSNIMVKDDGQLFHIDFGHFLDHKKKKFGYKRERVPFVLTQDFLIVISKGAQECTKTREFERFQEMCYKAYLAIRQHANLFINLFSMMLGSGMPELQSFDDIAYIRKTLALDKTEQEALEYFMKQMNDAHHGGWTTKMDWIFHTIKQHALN
Sequence of UniProt Q9UEE5 (whole entry, looked up): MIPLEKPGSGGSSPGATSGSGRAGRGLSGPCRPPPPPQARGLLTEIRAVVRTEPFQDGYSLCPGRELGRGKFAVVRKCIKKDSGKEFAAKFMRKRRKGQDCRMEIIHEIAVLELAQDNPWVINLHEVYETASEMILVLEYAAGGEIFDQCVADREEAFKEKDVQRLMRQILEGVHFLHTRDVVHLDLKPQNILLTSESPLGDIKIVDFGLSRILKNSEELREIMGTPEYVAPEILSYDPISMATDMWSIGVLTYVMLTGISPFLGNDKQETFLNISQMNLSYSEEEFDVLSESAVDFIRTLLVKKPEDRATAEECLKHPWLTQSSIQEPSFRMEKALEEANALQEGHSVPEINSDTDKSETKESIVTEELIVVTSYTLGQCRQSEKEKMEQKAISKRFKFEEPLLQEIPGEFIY
Sequence of UniProt Q52WX2 (whole entry, looked up): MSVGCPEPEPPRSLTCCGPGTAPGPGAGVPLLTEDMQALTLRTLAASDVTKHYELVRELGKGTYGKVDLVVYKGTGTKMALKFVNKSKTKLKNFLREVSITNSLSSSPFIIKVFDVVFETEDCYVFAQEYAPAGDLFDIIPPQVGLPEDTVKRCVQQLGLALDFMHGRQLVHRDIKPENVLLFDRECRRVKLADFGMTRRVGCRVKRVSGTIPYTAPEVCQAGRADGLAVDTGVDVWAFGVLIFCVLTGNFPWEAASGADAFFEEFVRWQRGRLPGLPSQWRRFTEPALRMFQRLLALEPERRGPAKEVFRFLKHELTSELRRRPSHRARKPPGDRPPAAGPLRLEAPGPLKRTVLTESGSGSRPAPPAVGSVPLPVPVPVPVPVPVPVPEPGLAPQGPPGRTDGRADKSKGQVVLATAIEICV
Sequence of UniProt Q9P289 (whole entry, looked up): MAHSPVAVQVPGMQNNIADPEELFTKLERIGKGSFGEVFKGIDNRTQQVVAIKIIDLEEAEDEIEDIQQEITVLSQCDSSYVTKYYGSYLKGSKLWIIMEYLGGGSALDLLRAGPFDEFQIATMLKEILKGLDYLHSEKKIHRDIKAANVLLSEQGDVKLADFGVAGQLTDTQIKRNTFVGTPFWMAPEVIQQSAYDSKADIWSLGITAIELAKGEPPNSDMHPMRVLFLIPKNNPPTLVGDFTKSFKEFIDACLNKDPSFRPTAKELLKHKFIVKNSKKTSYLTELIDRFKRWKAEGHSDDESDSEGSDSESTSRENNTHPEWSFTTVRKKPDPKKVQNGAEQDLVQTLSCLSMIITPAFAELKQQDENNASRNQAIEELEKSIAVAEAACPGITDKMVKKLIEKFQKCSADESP
Sequence of UniProt P22612 (whole entry, looked up): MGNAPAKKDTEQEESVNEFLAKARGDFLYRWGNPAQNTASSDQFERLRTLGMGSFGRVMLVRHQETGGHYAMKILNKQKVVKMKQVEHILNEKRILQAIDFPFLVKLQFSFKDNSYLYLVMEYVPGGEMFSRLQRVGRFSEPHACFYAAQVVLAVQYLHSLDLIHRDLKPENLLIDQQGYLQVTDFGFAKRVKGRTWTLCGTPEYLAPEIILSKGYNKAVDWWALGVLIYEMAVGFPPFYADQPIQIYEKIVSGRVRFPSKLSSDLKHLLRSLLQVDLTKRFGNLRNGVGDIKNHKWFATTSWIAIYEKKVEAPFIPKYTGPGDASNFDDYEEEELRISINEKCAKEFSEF
Sequence of UniProt Q16816 (whole entry, looked up): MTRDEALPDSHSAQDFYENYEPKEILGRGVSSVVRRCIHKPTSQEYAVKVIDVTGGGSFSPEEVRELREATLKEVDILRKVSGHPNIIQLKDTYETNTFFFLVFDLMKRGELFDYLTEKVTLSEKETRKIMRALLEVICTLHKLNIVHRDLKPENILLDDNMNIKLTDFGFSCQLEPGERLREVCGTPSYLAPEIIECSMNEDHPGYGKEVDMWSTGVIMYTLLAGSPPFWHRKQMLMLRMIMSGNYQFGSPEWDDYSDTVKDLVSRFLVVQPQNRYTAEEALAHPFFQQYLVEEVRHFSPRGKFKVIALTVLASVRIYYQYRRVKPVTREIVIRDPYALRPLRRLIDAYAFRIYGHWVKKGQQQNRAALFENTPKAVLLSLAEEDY
Sequence of UniProt Q02156 (whole entry, looked up): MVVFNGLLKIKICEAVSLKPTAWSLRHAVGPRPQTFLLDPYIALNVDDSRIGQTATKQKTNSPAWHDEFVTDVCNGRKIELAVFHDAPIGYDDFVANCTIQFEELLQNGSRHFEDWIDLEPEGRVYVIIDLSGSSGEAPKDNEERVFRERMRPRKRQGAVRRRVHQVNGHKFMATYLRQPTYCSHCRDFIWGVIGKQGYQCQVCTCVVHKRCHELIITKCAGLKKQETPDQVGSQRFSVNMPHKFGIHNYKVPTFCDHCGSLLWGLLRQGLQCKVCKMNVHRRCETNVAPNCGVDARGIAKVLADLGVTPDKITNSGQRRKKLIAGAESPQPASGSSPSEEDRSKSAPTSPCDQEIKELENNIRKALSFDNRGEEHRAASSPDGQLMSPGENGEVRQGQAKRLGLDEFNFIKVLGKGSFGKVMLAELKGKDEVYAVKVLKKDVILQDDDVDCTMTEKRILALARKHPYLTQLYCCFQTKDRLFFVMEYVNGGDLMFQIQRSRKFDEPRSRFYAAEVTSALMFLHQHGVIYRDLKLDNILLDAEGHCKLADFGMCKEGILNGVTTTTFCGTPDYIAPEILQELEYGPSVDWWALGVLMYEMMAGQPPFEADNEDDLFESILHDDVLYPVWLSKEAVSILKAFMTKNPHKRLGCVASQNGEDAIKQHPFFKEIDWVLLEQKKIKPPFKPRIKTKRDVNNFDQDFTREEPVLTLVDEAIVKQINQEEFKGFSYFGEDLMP

Set 1
Compound: O=C1NC(=O)/C(=C/c2ccc3nccnc3c2)S1
Read-out: enzyme activity
Mode: inhibitor
Concentration: 0.5 µM
Relative to: control
target | remaining activity
PRKACG (Homo sapiens, UniProt P22612) | 99.6%
WNK3 (Homo sapiens, UniProt Q9BYP7) | 85.8%
EPHB1 (Homo sapiens, UniProt P54762) | 93.4%
MAP4K4 (Homo sapiens, UniProt O95819) | 80.9%
RPS6KA5 (Homo sapiens, UniProt O75582) | 87.8%
PDPK1 (Homo sapiens, UniProt O15530) | 104%

Set 2
Target: CREM, bZIP domain (human)
Method: DHFR protein complementation
Matrix: yeast
Setting: single substitutions, most at no-binding floor
Relative to: wild-type JUN-FOS pair
Direction: higher = stronger binding
Parent: JUN, bZIP domain (human); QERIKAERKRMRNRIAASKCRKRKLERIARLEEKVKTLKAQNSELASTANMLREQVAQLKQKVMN; partner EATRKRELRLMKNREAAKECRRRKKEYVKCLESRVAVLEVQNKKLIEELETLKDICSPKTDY
Change | binding fitness
E32D | -1.53 natural log
A57K | -1.49 natural log
A46F | -1.63 natural log
K36S | -1.54 natural log
L45N | -1.52 natural log
A49Y | -1.37 natural log
L31W | -1.42 natural log
R53H | -1.56 natural log

Set 3
SMILES: C[C@@H]1CN(c2cc(-c3n[nH]c4ccc(OC5(C)CC5)cc34)ncn2)C[C@H](C)O1
Read-out: cell-free assay
Method: competition with immobilised ligand
Concentration: 0.1 µM
target | remaining binding [%]
SBK1 (Homo sapiens, UniProt Q52WX2) | 88
MATK (Homo sapiens, UniProt P42679) | 94
Non-receptor tyrosine-protein kinase TYK2, JH1 (TYK2, Homo sapiens, UniProt P29597) | 81
NEK3 (Homo sapiens, UniProt P51956) | 76
PHKG1 (Homo sapiens, UniProt Q16816) | 100
EGFR (Homo sapiens, UniProt P00533, del746-750) | 51
STK26 (Homo sapiens, UniProt Q9P289) | 76
MARK1 (Homo sapiens, UniProt Q9P0L2) | 100
MYLK3 (Homo sapiens, UniProt Q32MK0) | 87
PIK3CA (Homo sapiens, UniProt P42336) | 100
PRKD1 (Homo sapiens, UniProt Q15139) | 84
LYN (Homo sapiens, UniProt P07948) | 98
STK17A (Homo sapiens, UniProt Q9UEE5) | 100
PRKCE (Homo sapiens, UniProt Q02156) | 95

Set 4
Target: Cyclic AMP-responsive element-binding protein 1, full length (CREB1, Homo sapiens, UniProt P16220, residues 1-327)
Sequence of UniProt P16220 (whole entry, looked up): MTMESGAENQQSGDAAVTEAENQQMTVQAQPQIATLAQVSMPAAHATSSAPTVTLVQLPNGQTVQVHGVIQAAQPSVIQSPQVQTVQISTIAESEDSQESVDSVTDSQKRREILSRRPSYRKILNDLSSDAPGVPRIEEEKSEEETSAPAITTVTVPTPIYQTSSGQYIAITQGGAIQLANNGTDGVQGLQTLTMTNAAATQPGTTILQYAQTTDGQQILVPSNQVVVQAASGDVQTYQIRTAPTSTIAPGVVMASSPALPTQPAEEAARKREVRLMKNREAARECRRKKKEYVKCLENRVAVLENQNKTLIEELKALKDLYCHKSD
Method: protein-binding microarray
Form: hairpin DNA
Matrix: in vitro
Concentration: not given
Setting: whole hairpin DNA, median over replicate spots
Relative to: not given
Direction: higher = stronger binding
Shared flanks, not repeated: GAGGCCG … CGGCCTCACACTC
Sequence | median fluorescence [a.u.]
GCTGCGGTCAGCCTCCTGGCTGACCGCAGC | 2770
ACGACGCCGTGCCTCCTGGCACGGCGTCGT (5mC at 9 15 29 35) | 3240
GATGACGCCAGCCTCCTGGCTGGCGTCATC (5mC at 15) | 15300
GCTTACGTCAGCCTCCTGGCTGACGTAAGC | 7860
GCTGACGCGAGCCTCCTGGCTCGCGTCAGC (5mC at 29) | 3630
ATGACGTCGTGCCTCCTGGCACGACGTCAT (5mC at 15 29 35) | 4780
GCTGATGTCAGCCTCCTGGCTGACATCAGC | 3370
ACGCGGTCGTGCCTCCTGGCACGACCGCGT (5mC at 9 15 29 35) | 2980

Some of these lines once more (set 1):
target | remaining activity
PRKACG (Homo sapiens, UniProt P22612) | 99.6%
WNK3 (Homo sapiens, UniProt Q9BYP7) | 85.8%
EPHB1 (Homo sapiens, UniProt P54762) | 93.4%
MAP4K4 (Homo sapiens, UniProt O95819) | 80.9%
